Measured values gathered from unrelated publications.
HLA class I histocompatibility antigen, A alpha chain: HLA class I histocompatibility antigen, A alpha chain (Homo sapiens, UniProt P04439)
TEAD4: Transcriptional enhancer factor TEF-3 (TEAD4, Homo sapiens, UniProt Q15561)
UniProt Q15561, sequence (whole entry, looked up): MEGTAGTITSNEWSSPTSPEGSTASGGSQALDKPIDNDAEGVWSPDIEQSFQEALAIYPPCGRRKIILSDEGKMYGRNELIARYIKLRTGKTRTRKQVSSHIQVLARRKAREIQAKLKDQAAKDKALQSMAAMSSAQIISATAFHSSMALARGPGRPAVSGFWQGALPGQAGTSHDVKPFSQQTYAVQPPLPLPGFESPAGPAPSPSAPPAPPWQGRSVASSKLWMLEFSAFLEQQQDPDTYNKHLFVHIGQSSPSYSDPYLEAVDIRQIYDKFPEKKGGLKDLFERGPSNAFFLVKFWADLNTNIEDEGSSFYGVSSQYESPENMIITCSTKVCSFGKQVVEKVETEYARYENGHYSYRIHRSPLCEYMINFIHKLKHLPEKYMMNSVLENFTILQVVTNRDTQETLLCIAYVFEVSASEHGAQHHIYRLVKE
UniProt O15146, sequence (whole entry, looked up): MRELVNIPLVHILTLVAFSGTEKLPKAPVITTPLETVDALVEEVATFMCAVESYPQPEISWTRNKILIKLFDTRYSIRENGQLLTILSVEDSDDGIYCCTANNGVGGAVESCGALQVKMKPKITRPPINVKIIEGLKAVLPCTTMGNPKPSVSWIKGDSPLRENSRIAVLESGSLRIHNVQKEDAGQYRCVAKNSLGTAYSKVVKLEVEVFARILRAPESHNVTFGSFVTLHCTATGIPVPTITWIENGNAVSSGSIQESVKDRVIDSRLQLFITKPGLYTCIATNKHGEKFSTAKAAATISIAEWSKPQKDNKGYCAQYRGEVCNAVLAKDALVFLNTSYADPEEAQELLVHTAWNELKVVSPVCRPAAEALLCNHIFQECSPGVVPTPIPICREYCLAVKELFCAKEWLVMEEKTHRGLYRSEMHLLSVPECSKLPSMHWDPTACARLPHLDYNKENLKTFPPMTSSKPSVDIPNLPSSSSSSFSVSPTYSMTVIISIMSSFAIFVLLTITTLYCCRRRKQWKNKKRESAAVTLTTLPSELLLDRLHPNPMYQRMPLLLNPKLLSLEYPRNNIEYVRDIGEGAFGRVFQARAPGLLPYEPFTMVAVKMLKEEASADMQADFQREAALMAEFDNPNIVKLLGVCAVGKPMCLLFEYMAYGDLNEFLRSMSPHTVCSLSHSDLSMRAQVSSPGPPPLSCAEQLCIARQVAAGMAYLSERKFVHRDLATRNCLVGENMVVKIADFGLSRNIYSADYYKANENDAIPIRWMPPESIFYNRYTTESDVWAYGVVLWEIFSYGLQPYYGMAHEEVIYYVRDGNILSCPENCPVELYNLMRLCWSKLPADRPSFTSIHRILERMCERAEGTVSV
UniProt P41595, sequence (whole entry, looked up): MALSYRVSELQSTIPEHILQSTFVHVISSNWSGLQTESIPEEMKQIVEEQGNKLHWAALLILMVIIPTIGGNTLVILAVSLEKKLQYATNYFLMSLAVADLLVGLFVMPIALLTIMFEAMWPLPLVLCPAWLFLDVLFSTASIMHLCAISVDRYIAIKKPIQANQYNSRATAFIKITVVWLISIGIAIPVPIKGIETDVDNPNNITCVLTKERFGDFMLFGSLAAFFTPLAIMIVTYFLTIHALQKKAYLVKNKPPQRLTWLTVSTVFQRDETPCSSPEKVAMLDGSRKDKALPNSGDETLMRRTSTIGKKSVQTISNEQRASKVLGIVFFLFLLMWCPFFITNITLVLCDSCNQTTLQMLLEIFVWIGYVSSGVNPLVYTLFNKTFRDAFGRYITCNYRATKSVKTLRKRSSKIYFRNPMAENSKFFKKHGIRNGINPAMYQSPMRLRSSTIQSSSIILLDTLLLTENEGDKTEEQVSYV
UniProt P05067, sequence (whole entry, looked up): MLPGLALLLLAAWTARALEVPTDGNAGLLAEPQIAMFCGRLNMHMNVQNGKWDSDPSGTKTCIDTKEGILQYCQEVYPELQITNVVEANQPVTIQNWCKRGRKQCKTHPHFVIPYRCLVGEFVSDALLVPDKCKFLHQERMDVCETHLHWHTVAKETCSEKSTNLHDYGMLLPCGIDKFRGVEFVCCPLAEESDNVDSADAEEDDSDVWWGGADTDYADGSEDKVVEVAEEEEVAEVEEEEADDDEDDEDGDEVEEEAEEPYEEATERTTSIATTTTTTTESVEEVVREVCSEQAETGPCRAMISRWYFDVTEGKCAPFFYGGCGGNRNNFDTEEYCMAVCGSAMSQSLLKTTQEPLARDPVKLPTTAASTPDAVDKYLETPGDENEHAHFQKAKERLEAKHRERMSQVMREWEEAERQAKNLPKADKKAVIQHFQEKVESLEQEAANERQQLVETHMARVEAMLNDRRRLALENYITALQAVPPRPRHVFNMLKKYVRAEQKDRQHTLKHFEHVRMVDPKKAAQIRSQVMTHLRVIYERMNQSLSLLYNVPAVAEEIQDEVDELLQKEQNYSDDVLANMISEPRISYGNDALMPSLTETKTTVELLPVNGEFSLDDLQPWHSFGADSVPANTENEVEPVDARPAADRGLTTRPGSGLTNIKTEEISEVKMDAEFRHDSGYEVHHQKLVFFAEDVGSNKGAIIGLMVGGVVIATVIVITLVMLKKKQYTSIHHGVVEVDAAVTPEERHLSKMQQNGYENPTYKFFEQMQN
UniProt P30939, sequence (whole entry, looked up): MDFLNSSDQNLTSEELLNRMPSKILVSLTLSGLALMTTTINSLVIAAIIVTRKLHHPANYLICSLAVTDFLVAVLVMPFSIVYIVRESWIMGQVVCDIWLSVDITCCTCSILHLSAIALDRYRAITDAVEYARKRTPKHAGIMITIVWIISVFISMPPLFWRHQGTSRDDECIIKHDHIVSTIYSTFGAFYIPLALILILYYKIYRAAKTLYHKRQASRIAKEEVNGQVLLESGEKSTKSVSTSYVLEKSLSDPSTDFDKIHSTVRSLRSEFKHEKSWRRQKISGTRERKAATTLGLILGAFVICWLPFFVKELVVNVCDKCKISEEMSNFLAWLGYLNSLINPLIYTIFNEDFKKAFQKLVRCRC
UniProt Q9UGM1, sequence (whole entry, looked up): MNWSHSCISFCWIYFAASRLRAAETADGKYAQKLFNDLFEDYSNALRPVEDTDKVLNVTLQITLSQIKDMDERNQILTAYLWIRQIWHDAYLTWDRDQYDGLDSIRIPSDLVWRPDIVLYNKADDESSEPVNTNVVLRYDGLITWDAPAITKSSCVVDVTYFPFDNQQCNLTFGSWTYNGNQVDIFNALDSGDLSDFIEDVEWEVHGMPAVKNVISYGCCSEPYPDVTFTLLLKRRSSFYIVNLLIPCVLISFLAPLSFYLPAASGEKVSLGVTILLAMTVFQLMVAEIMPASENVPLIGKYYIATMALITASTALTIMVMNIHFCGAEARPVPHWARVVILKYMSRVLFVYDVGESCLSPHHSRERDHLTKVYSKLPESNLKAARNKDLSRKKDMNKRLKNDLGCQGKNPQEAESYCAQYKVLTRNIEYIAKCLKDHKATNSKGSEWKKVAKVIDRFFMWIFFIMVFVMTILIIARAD
UniProt P15090, sequence (whole entry, looked up): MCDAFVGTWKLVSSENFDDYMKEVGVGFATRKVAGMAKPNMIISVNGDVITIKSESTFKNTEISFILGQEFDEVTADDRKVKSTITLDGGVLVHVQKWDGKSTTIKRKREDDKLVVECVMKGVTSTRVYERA
UniProt O76039, sequence (whole entry, looked up): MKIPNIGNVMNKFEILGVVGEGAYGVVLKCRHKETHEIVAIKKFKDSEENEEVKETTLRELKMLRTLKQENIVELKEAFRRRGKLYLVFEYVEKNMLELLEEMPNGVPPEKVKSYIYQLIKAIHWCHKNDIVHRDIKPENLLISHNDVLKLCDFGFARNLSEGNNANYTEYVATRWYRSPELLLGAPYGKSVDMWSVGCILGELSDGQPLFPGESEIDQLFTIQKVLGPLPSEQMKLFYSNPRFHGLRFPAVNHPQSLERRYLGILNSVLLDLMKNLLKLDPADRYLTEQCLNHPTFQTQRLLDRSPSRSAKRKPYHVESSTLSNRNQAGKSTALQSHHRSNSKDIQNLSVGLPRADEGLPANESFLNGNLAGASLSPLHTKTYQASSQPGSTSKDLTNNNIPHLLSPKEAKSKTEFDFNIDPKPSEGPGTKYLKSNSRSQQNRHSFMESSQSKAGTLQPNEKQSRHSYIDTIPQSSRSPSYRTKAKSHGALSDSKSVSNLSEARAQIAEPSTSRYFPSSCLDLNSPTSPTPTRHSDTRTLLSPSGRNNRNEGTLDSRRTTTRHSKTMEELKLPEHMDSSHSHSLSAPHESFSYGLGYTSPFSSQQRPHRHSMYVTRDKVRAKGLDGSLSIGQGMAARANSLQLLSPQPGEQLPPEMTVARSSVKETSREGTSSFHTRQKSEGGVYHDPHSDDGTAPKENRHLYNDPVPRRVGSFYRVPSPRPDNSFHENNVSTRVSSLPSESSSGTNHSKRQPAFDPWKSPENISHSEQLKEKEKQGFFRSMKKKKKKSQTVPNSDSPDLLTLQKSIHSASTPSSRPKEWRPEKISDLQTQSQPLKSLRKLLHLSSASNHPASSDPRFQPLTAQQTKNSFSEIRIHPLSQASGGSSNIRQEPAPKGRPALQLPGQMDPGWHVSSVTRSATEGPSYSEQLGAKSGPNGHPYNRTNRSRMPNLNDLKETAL
UniProt Q16581, sequence (whole entry, looked up): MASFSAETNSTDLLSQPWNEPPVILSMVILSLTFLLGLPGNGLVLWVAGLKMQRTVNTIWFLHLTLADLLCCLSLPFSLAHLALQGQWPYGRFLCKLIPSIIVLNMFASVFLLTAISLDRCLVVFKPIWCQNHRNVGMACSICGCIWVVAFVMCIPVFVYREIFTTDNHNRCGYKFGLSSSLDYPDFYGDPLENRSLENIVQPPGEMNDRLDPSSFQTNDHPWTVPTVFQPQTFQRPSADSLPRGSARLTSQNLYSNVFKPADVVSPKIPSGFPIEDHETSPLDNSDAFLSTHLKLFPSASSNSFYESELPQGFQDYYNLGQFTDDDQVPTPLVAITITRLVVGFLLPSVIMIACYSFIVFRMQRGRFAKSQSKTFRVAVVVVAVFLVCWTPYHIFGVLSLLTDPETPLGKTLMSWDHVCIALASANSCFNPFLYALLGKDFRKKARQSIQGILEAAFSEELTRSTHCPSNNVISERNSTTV

CC(C)C[C@H](NC(=O)[C@@H](N)[C@@H](C)O)C(=O)N[C@@H](CCC(N)=O)C(=O)N1CCC[C@H]1C(=O)N1CCC[C@H]1C(=O)N[C@@H](C)C(=O)N[C@@H](CO)C(=O)N[C@@H](CO)C(=O)N[C@@H](CCCNC(=N)N)C(=O)N[C@H](CCCNC(=N)N)C(=O)N[C@@H](CCCNC(=N)N)C(=O)N[C@@H](Cc1c[nH]cn1)C(=O)N[C@@H](Cc1ccccc1)C(=O)N[C@@H](Cc1c[nH]cn1)C(=O)N[C@@H](Cc1c[nH]cn1)C(=O)N[C@@H](C)C(=O)N[C@@H](CC(C)C)C(=O)N1CCC[C@H]1C(=O)N1CCC[C@H]1C(=O)N[C@@H](C)C(=O)N[C@@H](CCCCNC(=N)N)C(=O)O — EC50 (C3AR1 (Homo sapiens, UniProt Q16581); β-arrestin recruitment, agonist, BRET): 0.511 µM
CC[C@H](C)[C@H](NC(=O)[C@H](CO)NC(=O)[C@H](Cc1ccc(O)cc1)NC(=O)[C@@H](NC(=O)[C@@H](N)CCCCN)C(C)C)C(=O)N1CCC[C@H]1C(=O)N[C@@H](Cc1c[nH]cn1)C(=O)N[C@@H](CCC(N)=O)C(=O)N[C@@H](CCSC)C(=O)O — IC50 (HLA class I histocompatibility antigen, A alpha chain; cell-free assay): 0.368 µM
Cc1ccc2c(c1)C(=O)C1(O)CCN(c3ccccc3)C1=N2 (centres unmarked) — Ki (Myosin-7 (MYH7, Bos taurus, UniProt Q9BE39); ATPase activity, inhibitor): 1.9 µM
CC[C@H](C)[C@H](NC(=O)[C@H](Cc1ccccc1)NC(=O)[C@@H]1CCCN1C(=O)CNC(=O)[C@H](Cc1ccc(O)cc1)NC(=O)[C@H](CCSC)NC(=O)[C@@H](N)CCCNC(=N)N)C(=O)N[C@@H](Cc1c[nH]cn1)C(=O)N[C@@H](Cc1ccccc1)C(=O)O — IC50 (HLA class I histocompatibility antigen, A alpha chain; cell-free assay): 0.286 µM
COc1cc(NC(=O)C(=O)[C@H](CC(C)C)NC(=O)[C@H](CC(C)C)NC(=O)[C@H](CC(C)C)NC(=O)c2ccc(-c3ccc(C(C)=O)cc3)o2)cc(OC)c1 — IC50 (Proteasome component C5/PSMB5, chymotrypsin-like site (Homo sapiens, UniProt P20618+P28074); enzyme activity in cells, inhibitor): 0.0324 µM
CCC(C(=O)Nc1cc(NC2CCNCC2)ccc1C)n1cc(Cl)cc2nc(SCc3ccc(F)cc3)nc1-2 (centres unmarked) — IC50 (Caspase-3 (CASP3, Homo sapiens, UniProt P42574); enzyme activity, inhibitor): > 100 µM
O=C(O)C(F)(F)C(F)(F)C(F)(F)C(F)(F)C(F)(F)C(F)(F)C(F)(F)F — Ki (AKR1C2 (Homo sapiens, UniProt P52895); enzyme activity, inhibitor, HPLC): 0.543 µM
OC[C@@]12C[C@@H]1[C@@H](n1cnc3c(NCc4ccccc4)nc(Cl)nc31)[C@H](O)[C@@H]2O — Ki (HTR2B (Homo sapiens, UniProt P41595); ligand displacement, radioligand): 1.75 µM
CC[C@H](C)[C@H](NC(=O)[C@@H]1CCCN1C(=O)[C@H](CC(N)=O)NC(=O)[C@H](CC(C)C)NC(=O)[C@@H](N)CCCNC(=N)N)C(=O)NCC(=O)N[C@@H](Cc1ccc(O)cc1)C(=O)N[C@@H](CO)C(=O)N[C@@H](Cc1ccc(O)cc1)C(=O)O — IC50 (HLA class I histocompatibility antigen, A alpha chain; cell-free assay): 0.015 µM
Cc1nn(C)cc1-c1nc2c(N3CCN(Cc4ccc(Cl)cc4)CC3)c(Cl)cnc2[nH]1 — remaining binding (MUSK (Homo sapiens, UniProt O15146); binding, competition with immobilised ligand; 1 µM): 100%
CC[C@H](C)[C@H](NC(=O)[C@H](CCSC)NC(=O)[C@@H](N)CCCNC(=N)N)C(=O)N1CCC[C@H]1C(=O)N[C@@H](CCCCN)C(=O)N[C@H](C(=O)N[C@@H](Cc1ccccc1)C(=O)N[C@@H](Cc1c[nH]cn1)C(=O)N[C@@H](Cc1ccc(O)cc1)C(=O)O)[C@@H](C)O — IC50 (HLA class I histocompatibility antigen, A alpha chain; cell-free assay): 0.029 µM
CSCC[C@H](NC(=O)[C@@H]1CCCN1C(=O)[C@@H](N)C(C)C)C(=O)N[C@@H](CCCNC(=N)N)C(=O)N[C@@H](CC(C)C)C(=O)N[C@@H](CCCNC(=N)N)C(=O)N[C@@H](CCCCN)C(=O)N[C@@H](CCSC)C(=O)N1CCC[C@H]1C(=O)N[C@@H](C)C(=O)N[C@@H](CO)C(=O)N[C@@H](Cc1ccccc1)C(=O)N[C@@H](Cc1ccccc1)C(=O)N[C@@H](CCCCN)C(=O)N1CCC[C@H]1C(=O)N1CCC[C@H]1C(=O)N[C@@H](CCC(=O)O)C(=O)O — Kd (TEAD4; binding, SPR; pH 7.4): 47.8 µM
Ic1cccc(-c2noc(CC3CN4CCC3CC4)n2)c1 (centres unmarked) — EC50 (CHRNA9 (Homo sapiens, UniProt Q9UGM1); ion current, agonist, two-electrode voltage clamp; oocytes): 0.21 µM
CC[C@H](C)[C@H](NC(=O)[C@H](Cc1c[nH]cn1)NC(=O)[C@H](CCCCN)NC(=O)[C@H](Cc1ccc(O)cc1)NC(=O)[C@H](CCC(N)=O)NC(=O)[C@H](C)N)C(=O)N[C@@H](Cc1c[nH]cn1)C(=O)N[C@H](C(=O)N[C@@H](Cc1ccc(O)cc1)C(=O)O)[C@@H](C)O — IC50 (HLA class I histocompatibility antigen, A alpha chain; cell-free assay): 0.672 µM
CC[C@H]1CN2CC[C@@]3(C(=O)Nc4ccccc43)[C@@H]2C[C@@H]1/C(=C\OC)C(=O)OC — Kd (PRDX3 (Homo sapiens, UniProt P30048); binding, SPR): 1.18 µM
[2H]c1c([2H])c([C@]2([2H])CCCN2C(=O)C(C)(C)Oc2ccc3cn[nH]c3c2)c([2H])c([2H])c1C([2H])([2H])[2H] — remaining binding (TLK2 (Homo sapiens, UniProt Q86UE8); binding, competition with immobilised ligand; 1 µM): 98%
CC[C@H](C)[C@H](NC(=O)[C@H](CCCNC(=N)N)NC(=O)[C@H](CCCCN)NC(=O)[C@@H]1CCCN1C(=O)[C@@H]1CCCN1C(=O)[C@H](CCCNC(=N)N)NC(=O)[C@@H]1CCCN1C(=O)[C@@H]1CCCN1C(=O)[C@@H]1CCCN1C(=O)[C@@H]1CCCN1C(=O)[C@@H](NC(=O)[C@H](Cc1c[nH]cn1)NC(=O)[C@H](CCC(=O)O)NC(=O)[C@@H]1CCCN1C(=O)[C@@H]1CCCN1C(=O)[C@@H]1CCCN1C(=O)[C@H](CCC(=O)O)NC(=O)[C@H](CC(C)C)NC(=O)[C@H](CC(=O)O)NC(=O)[C@H](CCC(=O)O)NC(=O)[C@H](Cc1c[nH]cn1)NC(=O)[C@H](CO)NC(=O)[C@H](CC(C)C)NC(=O)[C@@H](N)CCC(=O)O)[C@@H](C)CC)C(=O)N[C@@H](CC(C)C)C(=O)N[C@@H](CCC(=O)O)C(=O)N1CCC[C@H]1C(=O)N[C@@H](Cc1c[nH]cn1)C(=O)N[C@@H](CC(N)=O)C(=O)NCC(=O)N[C@@H](CCCCN)C(=O)N[C@@H](CS)C(=O)N[C@@H](CCCNC(=N)N)C(=O)N[C@@H](CCC(=O)O)C(=O)N[C@@H](Cc1ccccc1)C(=O)O — Kd (Protein enabled homolog (ENAH, UniProt Q8N8S7); binding, fluorescence): 8.4 µM
O=c1c(O)c(-c2ccc(O)c(O)c2)oc2cc(O)cc(O)c12 — EC50 (APP (Homo sapiens, UniProt P05067); amyloid aggregation, inhibitor, fluorescence): 8 µM
CSCC[C@H](NC(=O)[C@H](CCCNC(=N)N)NC(=O)[C@@H](N)C(C)C)C(=O)N[C@@H](CCCNC(=N)N)C(=O)N[C@@H](CC(C)C)C(=O)N[C@@H](CCCNC(=N)N)C(=O)N[C@@H](CCCCN)C(=O)N[C@@H](CC(C)C)C(=O)N[C@@H](CCCNC(=N)N)C(=O)N[C@@H](C)C(=O)N[C@@H](CO)C(=O)N[C@@H](Cc1ccccc1)C(=O)N[C@@H](Cc1ccccc1)C(=O)N[C@@H](CCCCN)C(=O)N1CCC[C@H]1C(=O)N1CCC[C@H]1C(=O)N[C@@H](CCC(=O)O)C(=O)O — Kd (TEAD4; binding, SPR; pH 7.4): 9.44 µM
O=C(O)C(F)(F)C(F)(F)C(F)(F)F — Ki (FABP4 (Homo sapiens, UniProt P15090); ligand displacement, fluorescence): 1180 µM
CC(N)Cc1c[nH]c2ccc(OCc3cccs3)cc12 (centres unmarked) — EC50 (HTR1F (Homo sapiens, UniProt P30939); G protein activation, agonist, BRET): 0.895 µM
COc1ncccc1-c1cnn2ccc(N3CCN(C(=O)OC(C)C)CC3)nc12 — remaining binding (CDKL5 (Homo sapiens, UniProt O76039); binding, competition with immobilised ligand; 1 µM): 94%
CC[C@H](C)[C@H](NC(=O)[C@@H]1CCCN1C(=O)[C@H](Cc1c[nH]cn1)NC(=O)[C@H](CCCCN)NC(=O)[C@H](Cc1ccc(O)cc1)NC(=O)[C@@H](NC(=O)[C@@H](N)Cc1ccc(O)cc1)[C@@H](C)O)C(=O)N[C@@H](Cc1ccc(O)cc1)C(=O)N[C@@H](CC(C)C)C(=O)O — IC50 (HLA class I histocompatibility antigen, A alpha chain; cell-free assay): 0.151 µM

For quick reference, copied from above:
CC[C@H](C)[C@H](NC(=O)[C@@H]1CCCN1C(=O)[C@H](CC(N)=O)NC(=O)[C@H](CC(C)C)NC(=O)[C@@H](N)CCCNC(=N)N)C(=O)NCC(=O)N[C@@H](Cc1ccc(O)cc1)C(=O)N[C@@H](CO)C(=O)N[C@@H](Cc1ccc(O)cc1)C(=O)O — IC50 (HLA class I histocompatibility antigen, A alpha chain; cell-free assay): 0.015 µM
Cc1nn(C)cc1-c1nc2c(N3CCN(Cc4ccc(Cl)cc4)CC3)c(Cl)cnc2[nH]1 — remaining binding (MUSK (Homo sapiens, UniProt O15146); binding, competition with immobilised ligand; 1 µM): 100%
CC[C@H](C)[C@H](NC(=O)[C@H](CCSC)NC(=O)[C@@H](N)CCCNC(=N)N)C(=O)N1CCC[C@H]1C(=O)N[C@@H](CCCCN)C(=O)N[C@H](C(=O)N[C@@H](Cc1ccccc1)C(=O)N[C@@H](Cc1c[nH]cn1)C(=O)N[C@@H](Cc1ccc(O)cc1)C(=O)O)[C@@H](C)O — IC50 (HLA class I histocompatibility antigen, A alpha chain; cell-free assay): 0.029 µM
